Experimental data of several laboratories.
Protocols differ between the studies behind these lines.

C[C@]1(O)C[C@@](N)(c2ccc(-c3nc4n(c3-c3ccccc3)COc3ccncc3-4)cc2)C1 — patients with decreased appetite (human, advanced or metastatic solid tumours; 16 mg once daily, phase I dose escalation): 0%
C=CC(=O)Nc1cc(Nc2nccc(Nc3cc(Cl)c(F)cc3C(C)(C)O)n2)c(OC)cc1N1CC[C@@H](N(C)C)C1 — patients with decreased appetite (human patients; oral, 400 mg, treatment-emergent adverse events): 45%
Cn1cncc1-c1c(F)cncc1NC(=O)c1c(N)nn2cc(F)cnc12 — patients grade ≥3 Lymphocyte count decrease (human patients; oral, 220 mg once daily, 2 weeks on 1 week off): 33%
CN(C)C(=O)c1cc2cnc(Nc3ccc(N4CCNCC4)cn3)nc2n1C1CCCC1 — patients with adverse event (item: Thrombocytopenia, AESI; human, HR+/HER2− advanced breast cancer; oral, dose not given, all grades, CTCAE v4.03): 9.6%
O=C1Nc2cc3[nH]nc(-c4ccncc4)c3cc2CN1Cc1ccccc1 — patients with subretinal fluid (CTCAE v4.03; human, relapsed or refractory advanced solid tumours; intravenous, 7.2 mg/kg, pooled schedules): 40%
C[C@@H]1OC(=O)NN=C1c1ccc(-c2ccc(F)cc2)c(C(F)(F)F)c1 — patients with adverse event (phase I trial, item: abdominal distension worst grade 1; human patients; 20 mg loading then 1 mg daily): 50%
Cc1nc(-c2ccc(OCC(C)C)c(C#N)c2)sc1C(=O)O — maximum inhibition (human coronavirus OC43; virus-induced cell killing; MRC-5; maximum over 10 doses): 0%
COc1ccc(-c2c(-c3ccc(C#N)c(F)c3)nc(N3CCC(N)CC3)n(C)c2=O)cc1F — patients with serious TEAE (item: cerebrovascular accident; human patients; oral, dose not given, dose escalation): 2%
CC(C)n1c(/C=C/C(O)CC(O)CC(=O)O)c(-c2ccc(F)cc2)c2ccccc21 (centres unmarked) — maximum inhibition (human coronavirus OC43; virus-induced cell killing; MRC-5; maximum over 10 doses): 0%
Cc1cn([C@H]2O[C@@H](CO[P@@](=O)(N[C@@H](C)C(=O)OC(C)C)Oc3ccccc3)[C@H](O)[C@H]2F)c(=O)[nH]c1=O — patients with creatine kinase elevation (item: grade 1/2; human; 25 mg): 0%
COc1ncnn2ccc(-c3cnc4nc(C)n(Cc5nnc([C@@H](C)F)o5)c4c3)c12 — patients with hyponatremia (human; oral, dose not given, grade 4): 0%
